# Experimental data of several laboratories.
# Each line is one published result; not all experiments were run side by side. “And” joins repeats or separate records; there may be more than shown.
# Target: G protein-coupled receptor kinase 5 (GRK5, Homo sapiens, UniProt P34947)
Compound,test,test system,conditions,how to read,endpoint,result
COc1c(OCCCN2CCOCC2)ccc2c1N=C(NC(=O)c1cnc(N)nc1)N1CCN=C21,"kinase activity, inhibitor",,1 µM,reference: untreated control,remaining activity,109%
CN1CC[C@@H](COc2cnc(C#N)cc2-c2ccn3nc(NC(=O)C4CC4)cc3c2)C1,"enzyme activity, inhibitor",,1 µM,,inhibition,-17%
NC(=O)[C@@H](O)C[C@H]1CCc2sc3ncnc(O[C@H]4CC[C@H](N5CCOCC5)CC4)c3c21,"enzyme activity, inhibitor",,10 µM,,inhibition,8%
CN1CCN(Cc2ccc(-c3ccc(CO[C@H]4CCC[C@@H]4NC(=O)c4cc(-c5cnn(C)c5)cnc4N)cc3)cc2)CC1,"enzyme activity, inhibitor",,0.1 µM,,inhibition,6%
CNC(=O)C[C@H](Cc1ccc(C#N)cc1)NC(=O)c1cc(-c2ccc(CN[C@H](C)c3ccc(C)cc3)o2)ccc1Cl,"enzyme activity, inhibitor",,1 µM,,activity vs control,94%
CCn1cc(C(=O)O)c(=O)c2c(N)c(F)c(NC3CCCCC3)cc21,kinase activity,,"0.1 µM, with: ATP at Km",,inhibition,-3.2%
Cc1nc2c(F)cc(-c3nc(Nc4ccc(CNC(=O)CCCCCCC(=O)NO)cc4)ncc3F)cc2n1C(C)C,"enzyme activity, inhibitor",,1 µM,,inhibition,3%
O=C(Cc1ccc(OCc2ccccc2)cc1)NC1(C(=O)O)CCN(C(=O)c2ccc(-c3cccc(Cl)c3)cc2)CC1,"enzyme activity, inhibitor",,10 µM,,activity vs control,109%
Nc1ncc(-c2cc(-c3cnn(CC(F)(F)F)c3)ncc2F)nc1C(=O)NC1CNCC(F)C1 (stereo not drawn),enzyme activity,,1 µM,reference: DMSO control,remaining activity,98.7%
O=C=[N][Ru-4]123([n]4c5ccc(O)cc5c5c6c(c7cc(F)c[n+]1c7c54)C(=O)NC6=O)[S+]1CC[S+]2CC[S+]3CC1 (stereo not drawn),enzyme activity,,"100 nM, human enzyme, with: 10 µM ATP",reference: untreated,remaining activity,65%
COc1ccc(NC(=O)Nc2ccc3c(c2)C(=O)N(C(C)CO)CC(C)C(CN(C)Cc2ccc4c(c2)OCO4)O3)cc1 (stereo not drawn),"kinase activity, KinaseProfiler",,"0.03 µM, species human",reference: control,remaining activity,98%
COCC12C(=O)NC3C4(C(OC)CC1O)C1CC5(O)C(OC)C(O)C(OC(C)=O)(C1C5OC(=O)c1ccccc1)C3(O)C(OC)C24 (stereo not drawn),"kinase activity, inhibitor, ProQinase kinase profiling",,25 µM,reference: control,remaining activity,79% and 93%
C=CC(=O)N1Cc2nc(-c3cc(-c4cc(Cl)cnc4Cl)c(F)cc3F)n(-c3ccncn3)c2C1,"cell-free assay, inhibitor",,1 µM,,inhibition,2.9%
NC(=O)C[C@H]1CCc2sc3ncnc(O[C@H]4CC[C@H](N5CCOCC5)CC4)c3c21,"enzyme activity, inhibitor",,10 µM,,inhibition,6%
C=CC(=O)Nc1cc(-c2nn(C3CCN(CCNC(=O)[C@H](C)CCC45CC6CC(CC(C6)C4)C5)CC3)c3ncnc(N)c23)ccc1Oc1ccccc1,"inhibitor, KiNativ profiling",biochemical,2 µM,,inhibition,13%

# A few entries again:
Compound,test,test system,conditions,how to read,endpoint,result
CN1CC[C@@H](COc2cnc(C#N)cc2-c2ccn3nc(NC(=O)C4CC4)cc3c2)C1,"enzyme activity, inhibitor",,1 µM,,inhibition,-17%
CNC(=O)C[C@H](Cc1ccc(C#N)cc1)NC(=O)c1cc(-c2ccc(CN[C@H](C)c3ccc(C)cc3)o2)ccc1Cl,"enzyme activity, inhibitor",,1 µM,,activity vs control,94%
